Experimental data collected from several papers.
± gives the spread as reported.
ache: Acetylcholinesterase (ache, Electrophorus electricus, UniProt O42275)

SMILES | tested on | test | test system | conditions | scale | quantity | value
O=C(CF)NC1C(O)CC(OC2C(O)C(CO)OC(Oc3ccc([N+](=O)[O-])cc3)C2O)(C(=O)O)OC1C(O)C(O)CO (stereo not drawn) | Sialidase-2 (Homo sapiens, UniProt Q9Y3R4) | substrate | – | 10 min, pH 5.0, 37 °C | – | Vmax | 0.00061 ± 3e-05 mM/s
COc1cc(N)c(Cl)cc1C(=O)NC1CN2CCC1CC2 (stereo not drawn) | ADGRG2 (Homo sapiens, UniProt Q8IZP9) | β-arrestin recruitment, TANGO luminescence, measured: GPR64 | – | concentration not given | reference: basal luminescence | log2 fold change | -0.00285
C[C@H]1CN(c2n[nH]c3nc(N[C@H]4CC[C@H](NS(=O)(=O)CCC(F)(F)F)CC4)ncc23)CCO1 | TLK2 (Homo sapiens, UniProt Q86UE8) | inhibitor, Kinobeads competition profiling | – | 0.8 µM | reference: vehicle | relative abundance | 1.2
CN1CCN(c2cc(-c3ccncc3)c(-c3ccc4ccccc4c3)nn2)CC1 | CCR7 (Homo sapiens, UniProt P32248) | agonist, FLIPR calcium | – | 12.5 µM | – | activation | 0.5%
COc1cc(Nc2ncc(F)c(Nc3ccc4c(n3)NC(=O)C(C)(C)O4)n2)cc(OC)c1OC | HRH4 (Homo sapiens, UniProt Q9H3N8) | – | – | – | – | IC50 | > 10000 nM
Nc1nc2c(ncn2[C@@H]2O[C@H](COP(=O)(O)OP(=O)(O)OP(=O)(O)O)[C@@H](O)[C@H]2O)c(=O)[nH]1 | GTP 3',8-cyclase (moaA, Staphylococcus aureus, UniProt P69848, R268K) | isothermal titration calorimetry | – | concentration not given, 25 °C, R268K mutant, anaerobic | – | binding entropy ΔS | -25.1 cal/mol/K
CNC1(c2ccccc2Cl)CCCCC1=O (racemic) | muscle nicotinic acetylcholine receptor | radioligand binding, antagonist, radioligand displacement | – | 30 µM | – | inhibition | -14%
COc1ccc(S(=O)(=O)N2CCCCC2)cc1C | panel of GPCRs and ion channels | radioligand binding | – | 10 µM | all targets | radioligand displacement | < 30%
C[C@@H](O)[C@@H](CO)NC(=O)[C@@H](CCCNC(=N)N)NC(=O)[C@@H]1CCCN1C(=O)[C@@H]1CSSC[C@H](NC(=O)[C@H](Cc2ccccc2)NC(=O)CN2CCN(CC(=O)O)CCN(CC(=O)O)CCN(CC(=O)O)CC2)C(=O)N[C@@H](Cc2ccc(O)cc2)C(=O)N[C@@H](Cc2ccccc2)C(=O)N[C@@H](CCC(N)=O)C(=O)N[C@@H](CC(N)=O)C(=O)N1 [gallium-68 labelled] | – | – | healthy Wistar rat, small intestine | intravenous, 8 MBq, 120 min | – | tissue uptake | 0.03 %ID/g
COc1cc2c(Oc3ccc4[nH]c(C)cc4c3F)ccnc2cc1OCC1(N)CC1 | – | – | paediatric recurrent refractory sarcoma | 10 mg | – | grade 3 sinus tachycardia | 0%
CN1CC[C@@H](c2c(O)cc(O)c3c(=O)cc(-c4ccc(C(F)(F)F)cc4Cl)oc23)[C@@H]1CO | – | measured: Hypotension | relapsed B-cell malignancies | oral, 150 mg, grade 3-4, intermittent dosing | – | patients with adverse event | 0%
Cc1cc(N)c2ccccc2[n+]1CCCCCCCCCC[n+]1c(C)cc(N)c2ccccc21 | ache | enzyme activity, inhibitor, Amplex Red | – | – | – | Hill slope | 0.87
CC1(C)C(C=C(Cl)Cl)C1C(=O)OCc1cccc(Oc2ccccc2)c1 (stereo not drawn) | uncharacterized protein (Anopheles coluzzii, UniProt A0A6E8VQK1) | enzyme activity, inhibitor | Sf9 cell homogenate | 69.77 µM, 0.1667 h, with: α-naphthyl acetate substrate | reference: no inhibitor | remaining activity | 96.8%
CC(=O)c1c(C)c2cnc(Nc3ccc(C4CCN(CCS(C)(=O)=O)CC4)cn3)nc2n(C2CCCC2)c1=O | – | – | human, plasma | oral, 100 mg twice daily, day 21, multiple doses | – | t1/2 | 8.08 h
Nc1ncnc2c1ncn2[C@@H]1O[C@H](COP(=O)(O)OP(=O)(O)O)[C@@H](O)[C@H]1O | Cell cycle histidine kinase CckA, R374A; cytoplasmic region (Caulobacter vibrioides, UniProt Q9X688, R374A) | binding, ITC | – | with: without c-di-GMP | – | ΔS | 8.41 cal/mol/K
O=C(c1ccc(Cl)cc1)N1CCN2C(=O)N(OC(=O)N3CCOc4ccccc43)C(=O)C2C1 (stereo not drawn) | Kynurenine formamidase (AFMID, Homo sapiens, UniProt Q63HM1) | enzyme activity, inhibitor, MS-based ABPP | SW-620 in situ | 10 µM, 2 h, 37 °C | reference: compound over DMSO, lower = stronger inhibition | median ratio | 1.17
O=C(O)COP(=O)(O)O | TPI1 (Saccharomyces cerevisiae, UniProt P00942, S211A) | enzyme activity, competitive inhibitor, GPDH/NADH-coupled | – | pH 8.9, 25 °C, ionic strength 0.1 NaCl, with: glyceraldehyde 3-phosphate substrate | reference: mutant over wild type | Ki ratio | 21
C/C(=C/C(=O)C[C@H](C)C(=O)O)[C@@H]1CC(=O)[C@@]2(C)C3=C(C(=O)C[C@]12C)[C@@]1(C)CCC(=O)C(C)(C)[C@@H]1C[C@@H]3O | Calcium-activated potassium channel subunit beta-1, with BK alpha subunit (Kcnmb1, Rattus norvegicus, UniProt P97678) | BK channel current | CHO with alpha and beta1 | – | – | Hill coefficient | 0.8 ± 0.04
COc1ccc(N2C(=O)N(c3c(C)cccc3Cl)Cc3cnc(Nc4ccc(C5CCN(C)CC5)cc4OC)nc32)nc1 | CSNK2A1 (Homo sapiens, UniProt P68400) | kinase activity, inhibitor | – | 0.5 µM, kinase CK2 | – | inhibition | 19%
CC[C@H](C)[C@H](NC(=O)[C@H](Cc1ccccc1)NC(=O)[C@H](CCC(=O)O)NC(=O)[C@H](CCCNC(=N)N)NC(=O)[C@H](C)NC(=O)[C@H](C)NC(=O)[C@H](CCC(N)=O)NC(=O)[C@H](CCC(=O)O)NC(=O)[C@H](CCC(=O)O)NC(=O)[C@H](CC(C)C)NC(=O)[C@H](Cc1ccc(O)cc1)NC(=O)[C@H](CO)NC(=O)[C@H](CO)NC(=O)[C@@H](NC(=O)[C@H](CC(=O)O)NC(=O)[C@H](CO)NC(=O)[C@@H](NC(=O)[C@H](Cc1ccccc1)NC(=O)[C@@H](NC(=O)CNC(=O)[C@H](CCC(=O)O)NC(=O)[C@H](C)NC(=O)CCc1c[nH]cn1)[C@@H](C)O)[C@@H](C)O)C(C)C)C(=O)N[C@@H](C)C(=O)N[C@@H](Cc1c[nH]c2ccccc12)C(=O)N[C@@H](CC(C)C)C(=O)N[C@H](C(=O)N[C@@H](CCCNC(=N)N)C(=O)NCC(=O)N[C@@H](CCCNC(=N)N)C(=O)N[C@@H](CCCCNC(=O)COCCOCCNC(=O)COCCOCCNC(=O)CC[C@H](NC(=O)CCCCCCCCCCCCCCCCC(=O)O)C(=O)O)C(=O)NCC(=O)NCC(=O)N[C@@H](CO)C(=O)N[C@@H](CCCCNc1c(NCCCCCN(O)C(=O)CCC(=O)NCCCCCN(O)C(=O)CCC(=O)NCCCCCN(O)C(C)=O)c(=O)c1=O)C(=O)O)C(C)C [zirconium-89 labelled] | – | ex vivo gamma counting | rat, intestine content | subcutaneous, 3 nmol/kg, 4 h, with: [89Zr]-labelled peptide | – | tissue uptake | 0.09 %ID/g

SMILES | tested on | test | test system | conditions | scale | quantity | value
[OH][Sb]([OH])[OH] | ArsV Ensifer adhaerens | enzyme activity, substrate, HPLC-HG-AFS | – | with: NADPH and FAD | – | Km | 2.2 µM
O=C(Nc1cnccc1Cl)N1CCN(Cc2ccc3c(c2)OC(F)(F)O3)CC1 | AVPR2 (Homo sapiens, UniProt P30518) | binding | – | 10 µM, with: [3H][Arg8]vasopressin | – | inhibition | 5%
O=C(O)Cc1c[nH]cn1 | SLC6A6 (Homo sapiens, UniProt P31641, Y138A) | binding, microscale thermophoresis | – | 15.6 µM, room temperature, with: 50 nM labelled protein | higher = more binding | normalised MST signal | 0.0283
Nc1ccncc1 | Glutamate receptor 2 (Homo sapiens, UniProt P42262) | ion current, agonist, automated patch clamp | HEK293 | 3 µM | – | activation | 4%
COc1cc(CCC[P+](c2ccccc2)(c2ccccc2)c2ccccc2)c(OC)c2c1OCO2.[I-] | OVCAR-4 | SRB | – | – | – | TGI | -4.79 log M
[2H]c1c([2H])c([C@]2([2H])CCCN2C(=O)C(C)(C)Oc2ccc3cn[nH]c3c2)c([2H])c([2H])c1C([2H])([2H])[2H] | Tyrosine-protein kinase JAK1, JH1 kinase domain (JAK1, Homo sapiens, UniProt P23458) | KINOMEscan | – | 1 µM | reference: DMSO control | remaining binding | 84%
OCC(F)(F)F | ADH1 (Saccharomyces cerevisiae, UniProt P00330, H49Q) | binding | – | pH 7.3 | reference: wild type | Kd increase | 13 fold
CO[C@H]1C[C@@H]2CC[C@@H](C)[C@@](O)(O2)C(=O)C(=O)N2CCCC[C@H]2C(=O)O[C@H]([C@H](C)C[C@@H]2CC[C@@H](OC(=O)NCCOCCOCCOCCOCCOCCOCCOCCOCCC(=O)N3CCc4cc(Cn5nc(-c6ccc7oc(N)nc7c6)c6c(N)ncnc65)ccc4C3)[C@H](OC)C2)C[C@@H](O)[C@H](C)/C=C(\C)[C@@H](O)[C@@H](OC)C(=O)[C@H](C)C[C@H](C)/C=C/C=C/C=C/1C | – | – | patients with advanced solid tumours | intravenous, 12 mg weekly, grade ≥3 | – | incidence of nausea TEAE | 8.3%
O=C(Nc1cccnn1)N1CCC(=Cc2cccc(Oc3ccc(C(F)(F)F)cn3)c2)CC1 | OPRM1 (Homo sapiens, UniProt P35372) | radioligand binding, inhibitor | – | 50 µM, human, with: [3H]diprenorphine | – | inhibition | 68%
COc1c(CCC[P+](c2ccccc2)(c2ccccc2)c2ccccc2)cc2c(c1OC)OCO2.[I-] | OVCAR-4 | SRB | – | – | – | TGI | -4.9 log M
Oc1ccc(-c2ccc(Cl)cc2)c(Cl)c1 | Estrogen receptor (ESR1, Homo sapiens, UniProt P03372) | reporter gene, agonist | T47D.luc | 24 h | reference: estradiol | EC25 | 100 nM
O=c1c2ccccc2oc2cc(OCCCCc3ccccc3)ccc12 | ache | enzyme activity | – | 2.91 µM, with: substrate 3.45 mM | higher = faster reaction | reaction velocity | 0.0022 a.u.
O=C(O)CCC(=O)C(=O)O | HIF1AN (Homo sapiens, UniProt Q9NWT6, Q147A) | cosubstrate | – | tunnel mutant Q147A | – | KI over Km | ~20 fold
CC[C@H](C)[C@@H]1NC(=O)[C@@H]2CCCN2C(=O)[C@H](CC(C)C)NC(=O)[C@H](CC(C)C)NC(=O)CNC(=O)[C@@H](NC(=O)[C@@H](NC(=O)[C@H](CC(=O)O)NC(=O)CNC(=O)[C@@H](NC(=O)[C@H](C)NC(=O)CNC(=O)[C@H](CCCCN)NC(=O)[C@H](CC(C)C)NC(=O)[C@H](CC(C)C)NC(=O)[C@H](CCCCN)NC(=O)CNC(=O)[C@@H](NC(=O)[C@@H](N)CC(C)C)C(C)C)C(C)C)C(C)C)CSSC[C@@H](C(=O)O)NC1=O | – | RNA-seq, measured: Pi15 | mouse, traumatic brain injury model, frontal cortex and hippocampus | dose not given | reference: TBI alone | log2 fold change | -2.77
C/C1=C2/[N-][C@H]([C@H](CC(N)=O)[C@@]2(C)CCC(=O)NC[C@@H](C)OP(=O)([O-])O[C@H]2[C@@H](O)[C@@H](n3cnc4cc(C)c(C)cc43)O[C@@H]2CO)[C@]2(C)N=C(/C(C)=C3N=C(/C=C4N=C1[C@@H](CCC(N)=O)C\4(C)C)[C@@H](CCC(N)=O)[C@]\3(C)CC(N)=O)[C@@H](CCC(N)=O)[C@]2(C)CC(N)=O.[CH3-].[Co+3] | MMACHC (Homo sapiens, UniProt Q9Y4U1) | demethylation, substrate | – | with: glutathione | – | kobs | 0.6 min⁻¹
Nc1ncnc2c1ncn2[C@@H]1O[C@@H]2COP(=O)(O)O[C@H]3[C@@H](O)[C@H](n4cnc5c(=O)[nH]cnc54)O[C@@H]3COP(=O)(O)O[C@H]2[C@H]1O | Zika virus | downregulated Reactome pathway, RNA sequencing, measured: Syndecan interactions (R-HSA-3000170) | HFF-1 | – | reference: ZIKV-infected untreated | fold enrichment | 13.2
COc1ccc(F)cc1C(=O)NCc1ccc(-c2nn([C@@H](C)C(F)(F)F)c(N)c2C(N)=O)cc1 | TXK (Homo sapiens, UniProt P42681) | enzyme activity | – | – | reference: TXK over BTK | selectivity ratio | 66.3
CN1CCc2[nH]c3ccccc3c2CC1.O=C(O)/C=C/C(=O)O | Nicotinic acetylcholine receptor alpha9/alpha10 (Rattus norvegicus, UniProt P43144+Q9JLB5) | ion current, inhibitor, two-electrode voltage clamp | Xenopus laevis oocytes | 3 µM, rat receptor, with: acetylcholine 100 µM | – | recovery time constant | 19 ± 0.9 s
CC(C)(C)c1csc(-c2cc3cc(OCc4ccccc4CC(=O)O)ccc3o2)n1 | FABP1 (Homo sapiens, UniProt P07148) | affinity selection mass spectrometry | – | 100 nM, with: pooled compounds | reference: other proteins | binding fold change | 10.6

For quick reference, copied from above:
SMILES | tested on | test | test system | conditions | scale | quantity | value
O=C(Nc1cccnn1)N1CCC(=Cc2cccc(Oc3ccc(C(F)(F)F)cn3)c2)CC1 | OPRM1 (Homo sapiens, UniProt P35372) | radioligand binding, inhibitor | – | 50 µM, human, with: [3H]diprenorphine | – | inhibition | 68%
COc1cc(Nc2ncc(F)c(Nc3ccc4c(n3)NC(=O)C(C)(C)O4)n2)cc(OC)c1OC | HRH4 (Homo sapiens, UniProt Q9H3N8) | – | – | – | – | IC50 | > 10000 nM
CC[C@H](C)[C@@H]1NC(=O)[C@@H]2CCCN2C(=O)[C@H](CC(C)C)NC(=O)[C@H](CC(C)C)NC(=O)CNC(=O)[C@@H](NC(=O)[C@@H](NC(=O)[C@H](CC(=O)O)NC(=O)CNC(=O)[C@@H](NC(=O)[C@H](C)NC(=O)CNC(=O)[C@H](CCCCN)NC(=O)[C@H](CC(C)C)NC(=O)[C@H](CC(C)C)NC(=O)[C@H](CCCCN)NC(=O)CNC(=O)[C@@H](NC(=O)[C@@H](N)CC(C)C)C(C)C)C(C)C)C(C)C)CSSC[C@@H](C(=O)O)NC1=O | – | RNA-seq, measured: Pi15 | mouse, traumatic brain injury model, frontal cortex and hippocampus | dose not given | reference: TBI alone | log2 fold change | -2.77
